Experimental data pooled from the literature.
Each line is one published result; not all experiments were run side by side. ± marks the error that the study gave.

| SMILES | test system | conditions | how to read | quantity | result |
| --- | --- | --- | --- | --- | --- |
| Cc1cccc(C)c1CNc1cc(C(=O)N2CCC2)cn2c(C)c(C)nc12 | rat Sprague-Dawley male, plasma | oral, 10 mg/kg |  | AUC(0-inf) | 806 ng·h/mL |
| O=C(O)/C=C\c1cc2ccoc2cc1O[C@@H]1O[C@H](CO)[C@@H](O)[C@H](O)[C@H]1O | rat, plasma | oral, dose not given, dosed as combined Eu and Pc extracts | reference: single extracts | AUC(0-inf) decrease | 771000 ± 703000 ng·h/mL |
| OC1(C(F)(F)F)CCN(c2nc(Nc3ccnc(C(F)(F)F)c3)nc(-c3cccc(C(F)(F)F)n3)n2)C1 (stereo not shown) | Sprague-Dawley rat, both sexes, plasma | oral gavage, 5 mg/kg, day 14 |  | AUC(0-inf) | 22600 ± 7330 ng·h/mL |
| C=C(NC(=O)c1csc(-c2nc3c(cc2O)-c2nc(cs2)C(=O)NC(C(C)O)C(=O)NC(=C(C)OC)c2nc(cs2)C(=O)NC2c4nc(cs4)C(=O)NC(COC(=O)c4c5c6c(cccc6n4O)COC(=O)C(OC4CC(C)(O)C(N(C)C)C(C)O4)C2OC5)c2nc-3cs2)n1)C(N)=O (stereo not shown) | male Sprague-Dawley rats, plasma | intravenous infusion, 2 mg/kg |  | AUC(0-inf) | 805 ng·h/mL |
| O=C(Nc1cc(-c2ccnc3[nH]ccc23)c(Cl)cn1)[C@H]1CCC[C@@H](NC(=O)C(F)(F)F)C1 | rat, plasma | oral, dose not given |  | AUC(0-inf) | 4460 ng·h/mL |
| C/C(N)=N/C(=N\S(=O)(=O)c1ccc(C(F)(F)F)cc1)N1C[C@H](c2ccccc2)C(c2ccc(Cl)cc2)=N1 | Sprague-Dawley rat, male, plasma | intravenous, 3 mg/kg |  | AUC(0-inf) | 6280 ng·h/mL |
| O=C(NS(=O)(=O)c1cccs1)c1cc2ccccc2n1Cc1ccc(Br)c2ccccc12 | Sprague-Dawley rat, male, plasma | intravenous, 2 mg/kg |  | AUC(0-inf) | 2130 ng·h/mL |
| O=C(O)c1c(O)cc(O[C@@H]2O[C@H](CO)[C@@H](O)[C@H](O)[C@H]2O)cc1/C=C/c1ccccc1 | Sprague-Dawley rat, plasma | intravenous, 1.0 mg/kg |  | AUC(0-inf) | 1160 ± 148 ng·h/mL |
| CCCC[C@H](OC(C)=O)c1ccccc1C(=O)O | Sprague-Dawley rat, both sexes, whole blood | intravenous, 5 mg/kg, 7 days |  | AUC(0-inf) | 4560 ± 1220 ng·h/mL |
| CNC(=O)C1CCCN(C(=O)C2CC3CCC2N3C(=O)[C@@H]2C[C@@H](O)CN2C(=O)NCc2cccc(Cl)c2F)C1 (mixture of isomers) | Sprague-Dawley rat, plasma | intravenous, 2.5 mg/kg |  | AUC(0-inf) | 695 ng·h/mL |

Repeated from above:
| SMILES | test system | conditions | how to read | quantity | result |
| --- | --- | --- | --- | --- | --- |
| C/C(N)=N/C(=N\S(=O)(=O)c1ccc(C(F)(F)F)cc1)N1C[C@H](c2ccccc2)C(c2ccc(Cl)cc2)=N1 | Sprague-Dawley rat, male, plasma | intravenous, 3 mg/kg |  | AUC(0-inf) | 6280 ng·h/mL |
